Published values from different studies.
Compare with care: the assays were run in different laboratories. ± marks the error that the study gave.

Structure (SMILES) | assay | system | setting | scale | endpoint | value
CC(C)C[C@H](NC(=O)[C@@H]1CCCN1C(=O)[C@H](CCCCN)NC(=O)[C@@H](N)CO)C(=O)N1CCC[C@H]1C(=O)N[C@@H](CCC(=O)O)C(=O)N[C@H](C(=O)N[C@H](C(=O)N[C@@H](CC(=O)O)C(=O)N[C@@H](CCC(=O)O)C(=O)N[C@@H](Cc1ccc(O)cc1)C(=O)NCC(=O)NCCOCCOCCOCCOCCOCCOCCOCCOCCOCCOCCOCCOCCC(=O)N[C@@H](CCCCNC(=O)CC[C@H](C(=O)O)N1CCN(CC(=O)O)CCN(CC(=O)O)CC1)C(=O)N1CCN(CCCN(C)c2ccc3nccc(C(=O)NCC(=O)N4CC(F)(F)C[C@H]4C#N)c3c2)CC1)[C@@H](C)O)C(C)C [copper-64 labelled] | PET | NMRI nude mouse, HT-1080 hFAP xenograft, tumour | intravenous |  | time to maximum uptake | ≥ 10 min
CC(C)C[C@H](NC(=O)[C@@H](N)Cc1ccccc1)C(=O)N[C@@H](C)C(=O)N[C@@H](CS)C(=O)N1CCC[C@H]1C(=O)N[C@@H](CCC(=O)O)C(=O)N[C@H](C(=O)N[C@@H](Cc1c[nH]cn1)C(=O)N[C@@H](CS)C(=O)N[C@H](C(=O)NCC(=O)N[C@@H](CO)C(=O)N[C@@H](Cc1c[nH]c2ccccc12)C(=O)N[C@@H](CCCCNC(=O)CN1CCN(CC(=O)O)CCN(CC(=O)O)CCN(CC(=O)O)CC1)C(N)=O)[C@@H](C)O)[C@@H](C)O [gallium-68 labelled] | gamma counting | C57BL/6J mice, B16-F10 tumour, tumour | intravenous, 3.7 MBq, 4 h |  | tumour uptake | 1.49 ± 0.06 %ID/g
CC(C)C[C@@H]1NC(=O)[C@H](CC(=O)O)NC(=O)CNC(=O)[C@H](CCCNC(=N)N)NC(=O)[C@H](Cc2ccccc2)NC(=O)[C@H](CCCCNC(=O)CCc2cn(CCCNC(=O)CCC(C(=O)O)N3CCN(CC(=O)O)CCN(CC(=O)O)CCN(CC(=O)O)CC3)nn2)N(C)C(=O)[C@H]2CCCN2C(=O)[C@H](Cc2ccccc2)NC(=O)[C@H](C)NC1=O (some centres unmarked) |  | female CB17 SCID mice, tumour and pancreas | intravenous, dose not given, 90 min, 177Lu-labelled | baseline: tumour over pancreas | tissue-to-tissue ratio | 15.5 ± 2.6
CC(=O)N[C@@H](CC(C)C)C(=O)N[C@H](C(=O)N[C@@H](Cc1ccccc1)C(=O)N[C@]1(C)CCCCCC/C=C/CCC[C@@](C)(C(=O)N[C@@H](C)C(=O)N[C@@H](C)C(=O)N[C@@H](C)C(=O)N[C@@H](C)C(=O)N[C@@H](C)C(=O)N[C@H](C)C(N)=O)NC(=O)[C@H](CC(C)C)NC(=O)[C@H](CCCCNC(=O)CCNC(=O)C[C@@H]2N=C(c3ccc(Cl)cc3)c3c(sc(C)c3C)-n3c(C)nnc32)NC(=O)[C@H](C)NC(=O)[C@H](Cc2c[nH]c3ccccc23)NC(=O)[C@H](Cc2ccc(O)cc2)NC(=O)[C@H](C)NC1=O)[C@@H](C)O |  | male C57BL/6 mouse, plasma | intravenous, 3 mg/kg |  | half-life | 5.01 h
CCCC[C@H](NC(=O)CN1CCC(NC(=S)Nc2ccc(C[C@H]3CN(CC(N)=O)CCN(CC(N)=O)CCN(CC(N)=O)CCN3CC(N)=O)cc2)CC1)C(=O)N[C@H]1CC(=O)NCCCC[C@@H](C(N)=O)NC(=O)[C@H](Cc2c[nH]c3ccccc23)NC(=O)[C@H](CCCNC(=N)N)NC(=O)[C@@H](Cc2ccccc2)NC(=O)[C@H](Cc2c[nH]cn2)NC1=O [lead-203 labelled] | shake flask | n-octanol/PBS | pH 7.4, 203Pb-labelled |  | logD | -2.16 ± 0.11
CC[C@H](C)[C@@H]([C@@H](CC(=O)N1CCC[C@H]1[C@H](OC)[C@@H](C)C(=O)N[C@H](C)[C@@H](O)c1ccccc1)OC)N(C)C(=O)[C@@H](NC(=O)[C@H](C(C)C)N(C)C(=O)OCc1ccc(NC(=O)[C@H](CCCNC(N)=O)NC(=O)[C@@H](NC(=O)CCCCCN2C(=O)CC(SC[C@H](NC(=O)[C@H](CC(=O)O)NC(=O)[C@H](Cc3ccc(O)cc3)NC(=O)[C@H](Cc3c[nH]c4ccccc34)NC(=O)[C@@H](N)CCCNC(=N)N)C(=O)O)C2=O)C(C)C)cc1)C(C)C (some centres unmarked) |  | C57BL/6 mouse, healthy, liver | intraperitoneal, 2.5 mg/kg, 1 h |  | concentration | not detected
CCCCCCCCCCCCCCC(=O)N[C@@H](CCCCNC(=O)CN1CCN(CC(=O)O)CCN(CC(=O)O)CCN(CC(=O)O)CC1)C(=O)N[C@@H](CCC(=O)NCCCC[C@@H]1NC(=O)[C@@H](Cc2ccccc2)NC(=O)[C@H](CC(=O)O)NC(=O)CNC(=O)[C@H](CCCNC(=N)N)NC1=O)C(=O)NCCCC[C@@H]1NC(=O)[C@@H](Cc2ccccc2)NC(=O)[C@H](CC(=O)O)NC(=O)CNC(=O)[C@H](CCCNC(=N)N)NC1=O [indium-111 labelled] |  | female BALB/c nude mice, U-87 MG xenograft, tumour | intravenous, 24 h |  | tumour uptake | 5.12 ± 0.99 %ID/g
C[C@@H](O)[C@@H]1NC(=O)[C@@H](NC(=O)CCOCCOCCOCCOCCNC(=O)c2ccc(NN)nc2)CSSC[C@@H](C(=O)O)NC(=O)[C@H](Cc2c[nH]cn2)NC(=O)[C@H](CO)NC(=O)[C@H](Cc2ccccc2)NC(=O)[C@@H]2CCCN2C(=O)[C@H](CO)NC(=O)[C@@H]2CCCN2C1=O [technetium-99m labelled] |  | mouse HCT-116 xenograft, blood | intravenous, 37 MBq, postmortem after imaging |  | tissue uptake | 0.16 ± 0.04 %ID/g
N=C(N)NCCC[C@@H]1NC(=O)[C@H](CCCCNC(=O)CCC(NC(=S)Nc2ccc(CC3CN(CC(=O)O)CCN(CC(=O)O)CCN(CC(=O)O)CCN3CC(=O)O)cc2)C(=O)NCCCC[C@@H]2NC(=O)[C@@H](Cc3ccc(O)cc3)NC(=O)[C@H](CC(=O)O)NC(=O)CNC(=O)[C@H](CCCNC(=N)N)NC2=O)NC(=O)[C@@H](Cc2ccc(O)cc2)NC(=O)[C@H](CC(=O)O)NC(=O)CNC1=O (some centres unmarked) [scandium-44 labelled] | PET imaging ROI | female athymic nude mice, U-87 MG xenograft, kidney | intravenous, 2 h |  | tissue uptake | 1.63 ± 0.47 %ID/g
CCCCCCCCCCCCCCCCCCCCCCCCCC(=O)O[C@H](CCCCCCCCCCCCCC)[C@@H](O)[C@H](CO[C@H]1O[C@H](CO)[C@H](O)[C@H](O)[C@H]1O)NC(=O)OCc1ccc(NC(=O)[C@H](CCCNC(N)=O)NC(=O)[C@@H](NC(=O)CCCCCn2cc(CCC(=O)N[C@@H](Cc3ccccc3)C(=O)N[C@@H](Cc3ccccc3)C(=O)N[C@@H](CCCNC(=N)N)C(=O)N[C@@H](CCCCN)C(=O)N[C@@H](CO)C(=O)N[C@H](C(=O)N[C@H](C(=O)N[C@@H](CC(N)=O)C(=O)N[C@@H](Cc3ccccc3)C(=O)N[C@@H](CCC(=O)O)C(=O)N[C@@H](CCCCN)C(=O)N[C@@H](CC(C)C)C(=O)O)[C@@H](C)CC)[C@@H](C)CC)nn2)C(C)C)cc1 | HPLC-ESI-MS/MS | aqueous ammonium acetate | 10 µg/mL, eight days, pH 5.0, 20 °C |  | α-GalCer released | < 0.05%
CC(C)C[C@@H]1NC(=O)[C@H](CC(=O)O)NC(=O)CNC(=O)[C@H](CCCNC(=N)N)NC(=O)[C@H](Cc2ccccc2)NC(=O)[C@H](CCCCNC(=O)CCc2cn(CCCNC(=O)CN3CCN(CC(=O)O)CCN(CC(=O)O)CCN(CC(=O)O)CC3)nn2)N(C)C(=O)[C@H]2CCCN2C(=O)[C@H](Cc2ccccc2)NC(=O)[C@H](C)NC1=O |  | female CB17 SCID mice, tumour and liver | intravenous, dose not given, 90 min, 177Lu-labelled | baseline: tumour over liver | tissue-to-tissue ratio | 1.4 ± 0.9

A few entries again:
Structure (SMILES) | assay | system | setting | scale | endpoint | value
CC(C)C[C@@H]1NC(=O)[C@H](CC(=O)O)NC(=O)CNC(=O)[C@H](CCCNC(=N)N)NC(=O)[C@H](Cc2ccccc2)NC(=O)[C@H](CCCCNC(=O)CCc2cn(CCCNC(=O)CCC(C(=O)O)N3CCN(CC(=O)O)CCN(CC(=O)O)CCN(CC(=O)O)CC3)nn2)N(C)C(=O)[C@H]2CCCN2C(=O)[C@H](Cc2ccccc2)NC(=O)[C@H](C)NC1=O (some centres unmarked) |  | female CB17 SCID mice, tumour and pancreas | intravenous, dose not given, 90 min, 177Lu-labelled | baseline: tumour over pancreas | tissue-to-tissue ratio | 15.5 ± 2.6
